Results of several laboratories.
Every numbered part comes from another study and shows a few of its results, in no order.

Study 1
Target: Sal-like protein 4, full length isoform A (SALL4, Homo sapiens, UniProt Q9UJQ4, residues 1-1053)
Chain of UniProt Q9UJQ4 (whole entry, looked up): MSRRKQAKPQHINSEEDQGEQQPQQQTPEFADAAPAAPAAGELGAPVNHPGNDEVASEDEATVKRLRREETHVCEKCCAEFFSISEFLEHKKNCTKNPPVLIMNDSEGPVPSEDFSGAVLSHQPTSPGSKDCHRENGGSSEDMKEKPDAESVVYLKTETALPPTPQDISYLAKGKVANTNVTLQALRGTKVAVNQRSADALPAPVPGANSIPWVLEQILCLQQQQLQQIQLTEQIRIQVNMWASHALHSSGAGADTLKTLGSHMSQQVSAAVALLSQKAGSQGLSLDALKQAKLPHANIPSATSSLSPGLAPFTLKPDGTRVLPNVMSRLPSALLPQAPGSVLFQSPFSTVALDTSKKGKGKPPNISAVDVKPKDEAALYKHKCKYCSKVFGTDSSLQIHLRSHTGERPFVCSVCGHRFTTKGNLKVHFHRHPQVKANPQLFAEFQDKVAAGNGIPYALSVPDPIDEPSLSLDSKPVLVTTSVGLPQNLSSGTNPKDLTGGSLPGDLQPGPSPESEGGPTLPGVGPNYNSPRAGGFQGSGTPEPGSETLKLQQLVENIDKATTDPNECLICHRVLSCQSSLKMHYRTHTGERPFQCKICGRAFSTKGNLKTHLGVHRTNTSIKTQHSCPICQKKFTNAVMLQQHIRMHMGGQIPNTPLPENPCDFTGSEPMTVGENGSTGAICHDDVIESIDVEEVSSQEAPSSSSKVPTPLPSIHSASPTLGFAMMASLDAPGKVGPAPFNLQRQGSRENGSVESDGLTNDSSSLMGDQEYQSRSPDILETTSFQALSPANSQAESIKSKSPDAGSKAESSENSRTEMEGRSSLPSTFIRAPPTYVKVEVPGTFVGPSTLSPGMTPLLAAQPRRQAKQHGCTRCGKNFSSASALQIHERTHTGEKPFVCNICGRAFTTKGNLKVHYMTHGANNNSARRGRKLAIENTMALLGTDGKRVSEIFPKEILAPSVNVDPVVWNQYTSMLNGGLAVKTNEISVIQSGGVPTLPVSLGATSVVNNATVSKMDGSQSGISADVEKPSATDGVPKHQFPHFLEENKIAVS
Technique: universal PBM
Molecule type: double-stranded DNA, one strand shown
Sample: in vitro
Concentration: 600 nM
Setting: 8-mer, flanks averaged, mean of replicates
Direction: higher = stronger binding
Sequence	E-score
AGCGTATG	-0.0341
AGCCTCTC	-0.127
ACCTTTTC	0.106
AGTGTCGC	-0.181
GCACTGGC	-0.227
GCGACATA	0.0999
ACCCATTA	0.0921
AGTGCGGC	-0.318
CCTATACG	-0.0599
AGACCACT	-0.0244
CCTTCGTC	-0.0484
AGAGCCTA	-0.0772
ATGACGCG	0.0841
ATTGGCCC	-0.164
CGCGTTAA	-0.141
AAAGGTCC	-0.21
CAATAGCA	0.0728
AGAGGACG	-0.121
GTGGTACA	0.00844
CCGTGTCC	-0.297
CTGCAGAA	0.0442
CGCGGAAA	-0.175
CAGGCCTC	-0.281
CCTATTTA	0.189
AATGACAA	0.231

Study 2
Target: Interferon regulatory factor 7, full length, phosphomimetic (IRF7, Homo sapiens, UniProt Q92985, residues 1-503, S471D/S472D/S475D/S476D/S477D/S483D/S484D/S487D)
Chain of UniProt Q92985 (whole entry, unmodified, looked up): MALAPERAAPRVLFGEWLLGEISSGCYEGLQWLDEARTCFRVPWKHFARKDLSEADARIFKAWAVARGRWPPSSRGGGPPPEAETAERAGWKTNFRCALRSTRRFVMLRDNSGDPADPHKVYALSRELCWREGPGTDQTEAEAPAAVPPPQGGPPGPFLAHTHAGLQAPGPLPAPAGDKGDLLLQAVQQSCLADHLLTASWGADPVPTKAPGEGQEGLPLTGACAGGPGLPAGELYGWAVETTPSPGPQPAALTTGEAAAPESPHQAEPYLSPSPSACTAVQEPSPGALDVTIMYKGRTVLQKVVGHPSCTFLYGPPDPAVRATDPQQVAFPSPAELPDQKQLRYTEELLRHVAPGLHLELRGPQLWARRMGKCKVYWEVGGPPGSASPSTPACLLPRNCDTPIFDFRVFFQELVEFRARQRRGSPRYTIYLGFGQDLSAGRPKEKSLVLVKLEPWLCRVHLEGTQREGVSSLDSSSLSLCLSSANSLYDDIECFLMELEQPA
Technique: protein-binding microarray
Molecule type: double-stranded DNA, one strand shown
Sample: in vitro
Concentration: 2200 nM top
Setting: 60-bp whole probe
Added: salmon DNA 0.4 mg/ml
Reference: random background probes
Direction: higher = stronger binding
All sequences stand within: GCCTAGCAC … GTCTTGATTCGCTTGACGCTGCTG
Sequence	fitted relative affinity [z-score]
CACGGTTCCCTTTTCCTGACGTGCTAG	2.62
GACGGTATCGACACTGGGTACGTGCTA	-0.102
TCACACATTTTTTTCATACTGTGCTAG	1.53
GATGGTATCGGTCTCGGGACGTGCTAG	0.152
TTAGGTATCGGGACTGGGTGAGTGCTA	-0.456
TCATGTTTCTCAAATGTTACTGTGCTA	1.51
GACCAACTGAGTTTCGAGACGTGCTAG	2.23
TTAGGACTGCTTTTCCTCTAGTGCTAG	0.811
TTAGATATCGGGATTGGATTAGTGCTA	0.17
TCAACTTCTGTTTTTGCACTGTGCTAG	1.88
GACGGTTTCGGTCACGGGACGTGCTAG	3.46
GACGGTTTCATTTTCCTGACGTGCTAG	5.94
GACGGACGGGGGTATCGGGACGTGCTA	0.457
TTAGGTCTCCTATTCCTTTAGTGCTAG	1.1
TCATTAATGCTTCTGGGACTGTGCTAG	0.54
TCAGCTTTCTTTAACTCACTGTGCTAG	0.847

Study 3
Target: Fragile X messenger ribonucleoprotein 1, C-terminal low-complexity region (Fmr1, Mus musculus, UniProt P35922)
Technique: RNA Bind-n-Seq
Molecule type: RNA
Sample: in vitro
Concentration: 200 nM
Setting: whole 134-nt RNA, ends assumed
Added: 150 mM KCl
Reference: input library
Direction: higher = stronger binding
All sequences stand within: GGGAGUUCUACAGUCCGACGAUC … UGGAAUUCUCGGGUGUCAAGG
Sequence	log2 enrichment
ACCAUGCAGGUGGGCAUCUUUGGGAAGUGGGGCAAGGGGGGGAUAGGGAGCGGGGUAACACUUUGGGAACAGGUGGUCCCAGGUCGUUUC	0.847
UGGCCCUGGUGGCAUGCGGGGAGGAAGAGGUGGCCUGAUGGAUCGUGGUGGUCCCGGUGGAAUGUUCAGAGGUGGCCGUGGUGGAGACAG	0.449
UCCUGUGCUACACAUCGUAUGUACCGAAUCGGGCCCCCCGGCCCCCCGGGCCCCCCGGGAAAGUAUUAUGUUACGCCGUUCGGAUCUGCA	-0.345
GCAGGAAGUAAAAACAAAUGGAAAUGCUUCGGAUAGUGGCAGGGGUGGGGGUUGCUAAGGAAAGAAAGGGAUGGGAGUGGGUAAAGAGUU	0.0259
AAGUCCUGUGCUACACAUCGUAUGUACCGAAUCGGAAAAAAAGGUUUUUUUGGUGGAAAGUAUUAUGUUACGCCGUUCGGAUCUGCACUU	-1.09
UCCAUGCAGGUGGGCAUCUUUGGGAAGUGGGGCAAGGGGGGGAUAGGGAGGGGGGUAACACUUUGGGAACAGGUGGUCCCAGGUCGUUUC	0.84
CAAGUCCUGUGCUACACAUCGUAUGUACCGAAUCGGGGAGGGGAAAGGGGAGGGGAAAGUAUUAUGUUACGCCGUUCGGAUCUGCACUUC	1.15
AAGUCCUGUGCUACACAUCGUAUGUACCGAAUCGGGUUUUGGGUUUUGGGGUUUUGGAAAGUAUUAUGUUACGCCGUUCGGAUCUGCACU	-0.0871
CUCAAGUCCUGUGCUACACAUCGUAUGUACCGAAUCGGAAGGGGAAGGGAAGGAAAGUAUUAUGUUACGCCGUUCGGAUCUGCACUUCCA	0.0633
AGUCCUGUGCUACACAUCGUAUGUACCGAAUCGGGGAGGGGUUUGGGGAAAAAGGGGAAAGUAUUAUGUUACGCCGUUCGGAUCUGCACU	0.917
UCCUGUGCUACACAUCGUAUGUACCGAAUCGUGUGUGUGUGUGUGUGUGUGUGUGUGUGAAAGUAUUAUGUUACGCCGUUCGGAUCUGCA	1
UGGCCCUGGUGGCAUGCGGGGAGGAAGAGGUGGCCUCAUGGAUCGUGGUGGUCCCGGAGGAAUGUUCAGAGGUGGCCGUGGUGGAGACAG	0.331
AAGUCCUGUGCUACACAUCGUAUGUACCGAAUCGGGCCCCGGGCCCCGGGGCCCCGGAAAGUAUUAUGUUACGCCGUUCGGAUCUGCACU	1.24
CACAGACAACACGCACCCACACAAACACAGAGGGAAGGGGUUGGGAUGGGGACAGGGUGCACAGCAGGGCGGGGUAGGACCCCAGCCCCU	1.22

Study 4
Target: Phosphate system positive regulatory protein PHO4, full length, GST-tagged (PHO4, Saccharomyces cerevisiae, UniProt P07270, residues 1-312)
Technique: competition protein-binding microarray
Molecule type: double-stranded DNA, one strand shown
Sample: in vitro
Concentration: 2 µM
Setting: whole 60-bp probe, lowest competitor level
Added: Cbf1 competitor, 0.05 µM
Direction: higher = stronger binding
All sequences stand within: … GTCTTGATTCGCTTGACGCTGCTG
Target sequence (chain): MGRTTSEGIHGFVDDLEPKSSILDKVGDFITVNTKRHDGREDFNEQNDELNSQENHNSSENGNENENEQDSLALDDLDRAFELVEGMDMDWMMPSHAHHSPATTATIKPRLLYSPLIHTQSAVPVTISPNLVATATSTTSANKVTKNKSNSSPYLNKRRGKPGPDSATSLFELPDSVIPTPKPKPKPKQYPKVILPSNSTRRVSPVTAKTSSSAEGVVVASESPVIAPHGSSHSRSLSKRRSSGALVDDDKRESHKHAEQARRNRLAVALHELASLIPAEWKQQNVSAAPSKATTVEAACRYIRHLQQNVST
Sequence	fluorescence intensity
GTCTTGTCTCATTGTGCCGTGGGTGTCCCCACTTCA	6300 a.u.
TGCGCAATGGAGAAACACGGGTGGCATAGGTCTGCG	7000 a.u.
CAATCCGCAATTTAGCACGTGCCAGATCCCACCGAC	19300 a.u.
CGGGGTTAAGTTTGGCAAGTGGGTGGCTTGCAGCAG	4740 a.u.
CATACCCAACCTTGCATGGTGGGTGAAGATATTTGT	5790 a.u.
CGCGCAAGTGTTCACCACGTAATCGCATCGCCCCTC	4980 a.u.
CATACCCAACCTTGTCCGGTGGGTGAAGATATTTGT	3910 a.u.
AAAGCGGTAATTTCCCACGTGTTTTCACATATCTAT	19500 a.u.
CCGGTTTTTATTCCTCCCGTGGTCGTTGTCTCTACC	6170 a.u.
CATATCAGTGGTAGCAACGTGGTCGCACTGAAGAAT	17100 a.u.
CTTCTGTAAATTTGTCACATGACTTGACGCGCCCCG	6010 a.u.
CATACCCAACCTTAACACGTGTTTTAAGATATTTGT	21900 a.u.
ACTGCCGTTGTTCATACCGTGACTCGTAGTGGCAGT	4370 a.u.

Study 5
Target: RNA binding protein fox-1 homolog 2, RRM domain, GST-SBP tag (RBFOX2, Homo sapiens, UniProt O43251-10, residues 100-194)
Technique: RNA Bind-n-Seq
Molecule type: RNA
Sample: in vitro
Concentration: 365 nM
Setting: natural RNA segment, single round, ends assumed
Reference: no-protein control
Direction: higher = stronger binding
All sequences stand within: GGGAGUUCUACAGUCCGACGAUC … UGGAAUUCUCGGGUGCCAA
Construct (chain): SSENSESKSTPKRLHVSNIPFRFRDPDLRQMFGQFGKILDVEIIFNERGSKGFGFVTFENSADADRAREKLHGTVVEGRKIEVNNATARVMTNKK
Sequence	RBNS enrichment (R)
CCUAGUUCUUCAUAGGGACUCUUAAAAUGCAGGAGAACCAUCCGAAGUCAACUCGGGGGACAUGCAAAAAUAACUAUAUAAGACAUUAAAAGAACAAAGAGUGAAAUAUU	0.503
UGAUUCAUAUUACAAUAUUUGUGUGCAAAAUGUGUAUGUUUUUCAGUUUAAAGUCAUGUUUUUAAAAUCUUAUUAAAGUUUCAAAAAUCUGAAGAUUGUUUAUCUUAUCU	0.591
AAGAUGAUUAGCCUUCCUUGAAAUAAGUAUUUGUGGAUGGGUGUUAAAUUAAAAUUUCCAGAAUACACUGUCCAUCUCACACACUCUGAAAUCUAAUAUAUGAAGUAGUA	0.617
CGGUCCUGGGCUCUCACCGGGGUCUGUCAUUGGCUCUGCACAGGCUGCAUGAACCCACGCACCUGUCCCUGACCUGCUGCUCUGGUCUCCUCACUAGCUCCAAUGUUCCC	1.03
CAUGUGCCUGUCUAUAGGUAGCAAGCAAUCUCUCCAUUUGAUCCUGUUCCAAACUAUUCCAUCAUCCUGUCCCAAUUGCCAAUAGAAAAGCUAAAAUCCCUGGCUCAGUU	0.78
CAAAUAUCUCAUUUUACAAGGUAGUUUAAAUUGUGUUAAAAUCACUAGCAAGAAGUAUAUAUUUUCUUUGAUUUUUAUUUUCAUUUUCCUUUGCCUGUAUUUAUCAAAGA	0.576
AGCAGGUUUGCUGCAGUGUUUUUUUCUGUCCACAUGCAAAUUUUGGAUUCUAUCCCAGACCCAGGUUUUCUAGUUCAGAAGACUAACCAGCUUAGUCAGAAGAUGGUUCC	0.354
AGGUGGUAUGGAAGCCUGCAUGCGUGUUCAACUCUGUUCCUCCUCCCUCCUCCUCGGCCUCCCUCCUCCCCUCCUUCGCUCGCUCAACCUCUUUUGUUCAGUACGUGUAA	7.23
AAAAGAAUUCUUGUUUUAGCACAGUUGAUGCACAUAAGUGAUUCUCAUAUUUGUUGUAUAAACUGGUUUAAUACAUUUGGAACAUAGUUGGAUUACAUUCAUUUCCUGGG	0.216
GAACUGGGUCAGCAGCCCUGUUCUUGCUUCCUCUCUCUUAAGCUAGGCCAGGCUGGCUCCUGGCUGUGAAGGAACUUCCGGUCCCCAAGAAGCCUUGAAGACUGGACAAG	0.236
CCUGCGGCCUCUGCCAAGACCUAACUCUAGACCACCUUCAGCUCUUUUAUUUUAUUUUUUUAGUUUUAUUUUGCACGUGUAGAGUUUUUGUCAUCAGACAAGGACUUUGA	6.48
UUUAAAUAAUUAUUACAUUAUUCUAACUAUAGUCAUAUUAUUUUGGAUUUAAAUAAAUUUCUAUCCUAUAACAUUUUUUUGGAGCUUUUUGUUUUGUCUCUUAAGGUUGU	0.565
